Published values collected from several papers.
Each line is one published result; not all experiments were run side by side. ± gives the spread as reported.

| SMILES | tested on | assay | test system | conditions | scale | quantity | result |
| --- | --- | --- | --- | --- | --- | --- | --- |
| C#CCCCOP(=O)(O)Oc1c2c(c(OP(=O)(O)OCCCC#C)c3c1C1CC3c3cc4c(cc31)C1CC4c3ccccc31)C1CC2c2cc3c(cc21)C1CC3c2ccccc21 | human respiratory syncytial virus | viral infection, GFP reporter, flow cytometry | A549 | virus pretreated 30 min | – | IC50 | 18900 nM |
| CC(=O)Nc1cc(Nc2cc(NC3CC3)n3ncc(C#N)c3n2)ccc1N1CCOCC1 | murine hepatitis virus | viral replication, nanoluciferase reporter | DBT | 10 h | – | IC50 | 79.4 nM |
| CCCC[C@H](NC(=O)CNC(=O)CNC(=O)c1ccc(NN)nc1)C(=O)N[C@H]1CC(=O)NCCCC[C@@H](C(N)=O)NC(=O)[C@H](Cc2c[nH]c3ccccc23)NC(=O)[C@H](CCCNC(=N)N)NC(=O)[C@@H](Cc2ccccc2)NC(=O)[C@H](Cc2c[nH]cn2)NC1=O [technetium-99m labelled] | – | – | C57 mouse, B16/F1 melanoma-bearing | intravenous, 0.5 h | baseline: tumour over blood | tissue uptake ratio | 5.26 |
| CC[C@H](C)[C@H](NC(=O)[C@H](CC(C)C)NC(=O)CNC(=O)[C@H](Cc1c[nH]cn1)NC(=O)[C@@H](NC(=O)[C@H](Cc1ccccc1)NC(=O)[C@H](CC(N)=O)NC(=O)[C@H](Cc1c[nH]c2ccccc12)NC(=O)[C@@H](NC(=O)[C@H](Cc1c[nH]cn1)NC(=O)[C@H](Cc1c[nH]cn1)NC(=O)[C@H](Cc1c[nH]c2ccccc12)NC(=O)[C@@H](N)CC(C)C)[C@@H](C)CC)C(C)C)C(N)=O | Herpes simplex virus 1 | viral entry, plaque reduction | Vero, F | 37 °C | – | IC50 | 4.23 µg/mL |
| CC(=O)CCC1C(=O)NC(C(C)C)C(=O)NC(Cc2cccc(O)c2)C(=O)N2CCCC(N2)C(=O)OC(C(C)=CC=CC(=O)N2CCCCO2)CC=CC=CC(O)C(C)C1O (stereo not drawn) | hepatitis B virus | viral replication, measured: HBV DNA | HBV stable cell line | – | – | IC50 | 610 nM |
| CC[C@H](C)[C@H](NC(=O)[C@H]([C@@H](C)CC)N(C)C(C)=O)C(=O)N[C@H](C(=O)N[C@@H](CC(C)C)C(=O)[C@@]1(C)CO1)[C@@H](C)O | Babesia divergens | parasite growth | bovine erythrocyte culture | 48 h, starting parasitemia 2% | – | IC50 | 63 ± 10 nM |
| CN[C@](C)(C[18F])C(=O)O | MDA-MB-468 tumour model | – | host not given, bone | 30 min, tumour-bearing | – | tracer uptake | 2.4 %ID/g |
| CN(C)CC1CCCCC1(O)c1cccc(O)c1 (stereo not drawn) | human P-glycoprotein | – | Caco-2 TC7 monolayer | 50 µM, 3 h, apical pH 7.4, basolateral pH 7.4, with: cyclosporine A 10 µM | – | Papp B-to-A | 20.1 ± 2.4 ×10⁻⁶ cm/s |
| CC[C@H](C)[C@H](NC(=O)[C@H](CC(C)C)NC(=O)CNC(=O)[C@H](Cc1c[nH]cn1)NC(=O)[C@@H](NC(=O)[C@H](Cc1ccccc1)NC(=O)[C@H](CC(N)=O)NC(=O)[C@H](Cc1c[nH]c2ccccc12)NC(=O)[C@@H](NC(=O)[C@H](Cc1c[nH]cn1)NC(=O)CNC(=O)[C@H](Cc1c[nH]c2ccccc12)NC(=O)[C@@H](N)CC(C)C)[C@@H](C)CC)C(C)C)C(N)=O | Herpes simplex virus 1 | viral attachment, plaque reduction | Vero, F | 1 h, 4 °C | – | IC50 | 1.43 µg/mL |
| N=C(N)NCCC[C@@H]1NC(=O)[C@H](CCCCNC(=O)CCOCCOCCOCCOCCNC(=O)CN2CCN(CC(=O)O)CCN(CC(=O)O)CCN(CC(=O)O)CC2)NC(=O)[C@@H](Cc2ccccc2)NC(=O)[C@H](CC(=O)O)NC(=O)CNC1=O [indium-111 labelled] | – | – | female athymic nude mice, kidney | intravenous, 3 µCi, 72 h, U-87 MG glioma xenograft | – | tissue uptake | 1.07 ± 0.11 %ID/g |
| CC(=O)Nc1ccc2ccn(-c3cc(NC4CCC4)n4ncc(C#N)c4n3)c2c1 | murine hepatitis virus | viral replication, nanoluciferase reporter | DBT | 10 h | – | IC50 | < 1000 nM |
| CC[C@H](C)[C@H](NC(=O)[C@H](Cc1ccccc1)NC(=O)[C@H](CC(=O)O)NC(=O)[C@H](CCCCN)NC(=O)[C@H](C)NC(=O)[C@H](CCCCN)NC(=O)[C@H](CC(N)=O)NC(=O)[C@H](CC(C)C)NC(=O)[C@H](Cc1c[nH]c2ccccc12)NC(=O)[C@H](CCC(=O)O)NC(=O)[C@H](CCCCN)NC(=O)[C@@H](NC(=O)CNC(=O)[C@H](C)N)[C@@H](C)O)C(=O)N[C@@H](CCCCN)C(=O)N[C@@H](CCC(=O)O)C(=O)N[C@@H](CCCCN)C(=O)NCC(=O)N[C@@H](CC(C)C)C(=O)N[C@@H](CCC(=O)O)C(=O)N[C@@H](CCSC)C(=O)N[C@@H](CC(C)C)C(=O)N[C@@H](CO)C(=O)N[C@@H](C)C(=O)N[C@@H](C)C(=O)N[C@@H](C)C(=O)N[C@@H](CC(N)=O)C(=O)N[C@@H](C)C(=O)N[C@@H](C)C(=O)N[C@@H](CC(C)C)C(=O)N[C@@H](CC(N)=O)C(=O)O | Haemonchus contortus | larval development | Kirby isolate | 6 days, 26 °C | – | IC50 | > 100000 nM |

For quick reference, copied from above:
| SMILES | tested on | assay | test system | conditions | scale | quantity | result |
| --- | --- | --- | --- | --- | --- | --- | --- |
| CCCC[C@H](NC(=O)CNC(=O)CNC(=O)c1ccc(NN)nc1)C(=O)N[C@H]1CC(=O)NCCCC[C@@H](C(N)=O)NC(=O)[C@H](Cc2c[nH]c3ccccc23)NC(=O)[C@H](CCCNC(=N)N)NC(=O)[C@@H](Cc2ccccc2)NC(=O)[C@H](Cc2c[nH]cn2)NC1=O [technetium-99m labelled] | – | – | C57 mouse, B16/F1 melanoma-bearing | intravenous, 0.5 h | baseline: tumour over blood | tissue uptake ratio | 5.26 |
| CC[C@H](C)[C@H](NC(=O)[C@H](CC(C)C)NC(=O)CNC(=O)[C@H](Cc1c[nH]cn1)NC(=O)[C@@H](NC(=O)[C@H](Cc1ccccc1)NC(=O)[C@H](CC(N)=O)NC(=O)[C@H](Cc1c[nH]c2ccccc12)NC(=O)[C@@H](NC(=O)[C@H](Cc1c[nH]cn1)NC(=O)[C@H](Cc1c[nH]cn1)NC(=O)[C@H](Cc1c[nH]c2ccccc12)NC(=O)[C@@H](N)CC(C)C)[C@@H](C)CC)C(C)C)C(N)=O | Herpes simplex virus 1 | viral entry, plaque reduction | Vero, F | 37 °C | – | IC50 | 4.23 µg/mL |
